Measurements pooled from the literature.
A part holds a random share of what one study measured.

Set 1 — technique: RNA Bind-n-Seq; form: RNA; matrix: in vitro; concentration: 1 µM; setting: whole 134-nt RNA, ends assumed; with: 150 mM KCl; reference: input library; reading: higher = stronger binding
Target: Ras GTPase-activating protein-binding protein 1, RRM domain (G3BP1, Homo sapiens, UniProt Q13283)
Chain of UniProt Q13283 (whole entry, looked up): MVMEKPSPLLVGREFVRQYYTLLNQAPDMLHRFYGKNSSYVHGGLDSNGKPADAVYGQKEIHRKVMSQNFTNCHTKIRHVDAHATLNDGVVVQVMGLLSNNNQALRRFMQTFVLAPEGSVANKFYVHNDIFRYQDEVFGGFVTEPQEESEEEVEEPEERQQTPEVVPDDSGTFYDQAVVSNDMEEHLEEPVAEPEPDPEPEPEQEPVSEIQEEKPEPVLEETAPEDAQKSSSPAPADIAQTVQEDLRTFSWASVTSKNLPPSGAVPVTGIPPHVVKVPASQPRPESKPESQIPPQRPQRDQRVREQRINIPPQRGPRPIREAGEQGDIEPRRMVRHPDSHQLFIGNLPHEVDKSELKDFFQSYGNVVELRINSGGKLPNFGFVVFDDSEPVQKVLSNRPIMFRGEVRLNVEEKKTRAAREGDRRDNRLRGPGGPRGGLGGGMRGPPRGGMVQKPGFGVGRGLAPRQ
Constant ends, left off below: GGGAGUUCUACAGUCCGACGAUC … UGGAAUUCUCGGGUGUCAAGG
| Oligonucleotide | log2 enrichment |
| --- | --- |
| GUCCUGUGCUACACAUCGUAUGUACCGAAUCGGUUUUUGGGGUUUUUGGGUUUUUGGGGAAAGUAUUAUGUUACGCCGUUCGGAUCUGCA | -0.0657 |
| UAGCUAAACUAAUGUCAACUUAUUUCCUUUUUUCCUUUAGCCACCAUCAAAGAACAGACGAGAGAGAACAGAACUGAAGCCUGAUUUCUU | -0.409 |
| UUGAACAUCUGCAGGAAAAGAGGCGAGAGGGCACUUUGAGAGUGGAUACCUACACUCUAGUGCAGCCUGAGGCAGAAGACCAUGUUGAGA | -0.139 |
| GUCCUGUGCUACACAUCGUAUGUACCGAAUCAAAGUGUGUGUGUGUGUGUGUGUGAAAAAAGUAUUAUGUUACGCCGUUCGGAUCUGCAC | 0.0307 |
| UGGAGAUGACAGAAAUGACUGGUGUGUCGCUGAAACGUGGGGCACUGGUUGUCGAAGAUAAUGACAGUGGAGUCCCAGUUGAAGAGACAA | -0.207 |
| CUCAAGUCCUGUGCUACACAUCGUAUGUACCGAAUCGGUUUGGAAAGGUUUGGAAAGUAUUAUGUUACGCCGUUCGGAUCUGCACUUCCA | -0.271 |
| GUCCUGUGCUACACAUCGUAUGUACCGAAUCAAACCCCCAAACCCCCCCAAAUUUAAAAAAGUAUUAUGUUACGCCGUUCGGAUCUGCAC | -0.0849 |
| UAGCAUAUUGCCUUGUUCACUACCGAGGAGAUGAGAAGAUUAAAGGUUUCAUAUGGGAUCUCAUUACUCCAACUGAAGAUGGACAGACAC | 0.139 |
| CCUGUGCUACACAUCGUAUGUACCGAAUCGGGGAAAAAAGGGGAAAAAAGGAAAAAAGGGGAAAGUAUUAUGUUACGCCGUUCGGAUCUG | -0.0918 |
| GUCCUGUGCUACACAUCGUAUGUACCGAAUCAAAUUUUUAAACCCCCCCAAACCCAAAAAAGUAUUAUGUUACGCCGUUCGGAUCUGCAC | -0.504 |

Set 2 — technique: protein-binding microarray; form: double-stranded DNA, one strand shown; matrix: in vitro; concentration: 250 nM; setting: 60-bp whole probe; with: salmon DNA 0.4 mg/ml; reference: random background probes; reading: higher = stronger binding; constant ends, left off below: GCCTAGCAC … GTCTTGATTCGCTTGACGCTGCTG
Target: Interferon regulatory factor 7, full length, phosphomimetic (IRF7, Homo sapiens, UniProt Q92985, residues 1-503, S101K/S471D/S472D/S475D/S476D/S477D/S483D/S484D/S487D)
Target sequence (chain): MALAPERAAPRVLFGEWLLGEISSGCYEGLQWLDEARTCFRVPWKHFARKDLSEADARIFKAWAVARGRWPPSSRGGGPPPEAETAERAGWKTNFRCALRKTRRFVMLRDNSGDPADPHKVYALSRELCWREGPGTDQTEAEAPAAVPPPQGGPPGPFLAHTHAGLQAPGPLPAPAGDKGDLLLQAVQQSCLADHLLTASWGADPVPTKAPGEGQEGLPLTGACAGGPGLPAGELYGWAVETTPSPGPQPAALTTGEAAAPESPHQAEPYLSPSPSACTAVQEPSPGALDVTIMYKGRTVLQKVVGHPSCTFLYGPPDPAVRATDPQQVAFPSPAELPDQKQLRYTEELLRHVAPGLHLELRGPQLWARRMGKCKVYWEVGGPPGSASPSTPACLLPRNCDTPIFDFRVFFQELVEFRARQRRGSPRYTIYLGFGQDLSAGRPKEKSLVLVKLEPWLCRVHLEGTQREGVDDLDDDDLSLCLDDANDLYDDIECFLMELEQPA
| Oligonucleotide | log fluorescence [z-score] |
| --- | --- |
| TTAGAGCTGGGGTATCGATTAGTGCTA | -0.943 |
| TTAGGACTGCTTGTCCTTTAGTGCTAG | -0.116 |
| GACGATATCGGGTTGCGAGACGTGCTA | -0.00396 |
| TTAGTTCTCAGACTGGATTAGTGCTAG | 0.594 |
| GACGGCATCGGGTTTCGGGACGTGCTA | 0.958 |
| TTAGGTATAGACTATCGGTTAGTGCTA | -0.344 |
| GACGGTATCCTACTGCGGACGTGCTAG | -0.309 |
| AACAGGAGCAGATGGGAAGTGTGCTAG | -0.563 |
| CTAATTAGAATTTTCATTAAGTGCTAG | 1.92 |
| GACGATTTCAGTTCTGAGACGTGCTAG | 0.288 |
| GGCGGTCTCCTTCTCCTGACGTGCTAG | -0.527 |
| TCACTTCTGCCTGTCCAACTGTGCTAG | 0.697 |
| GACGGACTGGGTAACGGGACGTGCTAG | -0.579 |
| GACAAACTGGGGACTGGAGACGTGCTA | 0.0385 |
| AGGAGAGATTAAGTAACTTAGTGCTAG | -0.619 |
| TTAGGTTTTGGACTGGGTTAGTGCTAG | 0.239 |
| TCAATTTTCGTTTTTATACTGTGCTAG | 7.31 |
| GTCGAACTGGGGTATCGAGACGTGCTA | -0.062 |
| CCCTTACCGCATATCGGGGTGTGCTAG | 0.491 |

Set 3 — technique: RNA Bind-n-Seq; form: RNA; matrix: in vitro; concentration: not given; setting: RNA with constant flanks, ends assumed; reference: input RNA pool; reading: higher = stronger binding
Target: RING finger protein unkempt homolog, zinc fingers 1-6, GST-SBP tag (UNK, Homo sapiens, UniProt Q9C0B0, residues 30-357)
Constant ends, left off below: GGGAGUUCUACAGUCCGACGAUC … CAACAGAGGAUUGAGCAUCA
Construct (chain): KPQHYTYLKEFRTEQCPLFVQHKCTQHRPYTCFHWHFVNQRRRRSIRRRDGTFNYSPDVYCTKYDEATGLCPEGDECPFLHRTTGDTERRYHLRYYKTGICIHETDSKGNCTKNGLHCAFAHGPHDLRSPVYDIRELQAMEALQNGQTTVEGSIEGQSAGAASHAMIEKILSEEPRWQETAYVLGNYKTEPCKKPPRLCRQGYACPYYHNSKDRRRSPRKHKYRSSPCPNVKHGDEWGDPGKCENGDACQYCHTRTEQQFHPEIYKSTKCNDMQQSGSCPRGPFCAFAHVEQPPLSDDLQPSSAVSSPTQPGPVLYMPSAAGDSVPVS
| Oligonucleotide | bound/input enrichment [ratio] |
| --- | --- |
| AUGAUGAAGCUAUCAGAAGAAAAUCGGCACCUGAGAGAUGAAGGUUUAAGGCUCAGAAAGGCCGCACAUUCGGAUAAACCUGGAUCAACCUCAACUGCAUCCUUCAGAGAUAAUGUCACC | 0.0679 |
| AAGGCAACACUGGUGGCUUCCUGCCCUUCGCCGCUCCUUGCCUCCCGUUUUGCUGGGUAUUUCCGAUUGGGAGUGACCCCUGUGAUUCCAGCCAUGGGUGCCUCAGCAUCUUCUCCUGCU | 0.121 |
| UGGCUUAAUCAAAUCAUGCCUAAGAAAGACCCUGUGAAAAUUGUCCGAUGCCAUGAACACACCGAAAUCCUUACAGUAAAUGGAGAAUUACUGUUUUUUAGACAAAGAGAAGGGCCUUUU | 0.7 |
| UGCUGGCUCUGUUUUUCUGUAAAUAAAUUUGCAUAUUUUGUAGGACUUUUAAUUGUAAUGACCGAGAAAAAACAAGGAAAACUAUUUAAUGAAAGCACGAUAUUUAUCUUUGGUAAAUGA | 0.32 |
| AUGAGAGCUCCAAAACACUUUCUUCCUGAGAUGCUAAGCAAAGUGAUCAUCCUGUCACUUGACCGAAGUGAUGAAGAUAAAGAAAAAGCAAGCUCUUUAAUCAGUUUACUCAAACAGGAA | 0.0728 |
| AAAGAUCUACUGAGGCAAGGCAGCAAAUUUAGAAGAAAUGUAUCAACACUAUUAACCGAGUCCGGAUUCCAAAUUAAAAAAAAAACUAAAAGAUUGUAUAUCAACAAAGCCAAUAUCUGG | 3.37 |
| CCUCUACUUCAGUACUUUGGUAUCCUUUUGGACCAGGGACAGCUCAACAAAUACGAAUCCUCCGAGCUUUGUAGGCCUGUACUUCAGCAAGGGCGAAAACAGCUUUUGGAGAAAUGGUUA | 0.0718 |
| AAAAGGGAUUUGGGCCACUACCCAGCUAUUAUUGUUCAGUCAGUUGUGUCUCCUACCCACACCGACAUGUGUGUGCAUAUGUACAACACACACACACACACACACACACACACACACACA | 0.786 |
| GAAGAUGACUCUCAAGAAGAGGAAGAAGUCAGCCUACCCAAACGAGGAAGACCACAAGUCCGAUUGCCAGUUAAAACAAGAGGGAAACUUAGCUCUUCUUUCUCAAGUCGUGGCCAACAA | 0.195 |
| UAUAUUUUGGAUUUUGUUUGUGUUGAAUUUUUUAAUCAUUGUGCACAGAAGCAUCAUUGGCCGCUUUUAUAUGCAAAAUGGUCAUUUCAGAUGUAUGGUGUUUUUACACUACAAAGAAGU | 0.15 |
| GAUAAAGACCCCAACAAGAAGAUGAAACGAAACUUAAGGAAAAUUCUGGAUAGUAAAGCAACCGACCUUAUGAAUGCACUAAUGAGGCUAAAUCAGAUCAGGCCUGGGCUUCAGUAUAAG | 0.341 |

Set 4 — technique: RNA Bind-n-Seq; form: RNA; matrix: in vitro; concentration: 365 nM; reference: no-protein control; reading: higher = stronger binding
Target: RNA binding protein fox-1 homolog 2, RRM domain, GST-SBP tag (RBFOX2, Homo sapiens, UniProt O43251-10, residues 100-194)
Setting: natural RNA segment, single round, ends assumed
Constant ends, left off below: GGGAGUUCUACAGUCCGACGAUC … UGGAAUUCUCGGGUGCCAA
Residues (chain): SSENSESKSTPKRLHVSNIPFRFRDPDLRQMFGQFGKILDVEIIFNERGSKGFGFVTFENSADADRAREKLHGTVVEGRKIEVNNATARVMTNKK
| Oligonucleotide | RBNS enrichment (R) |
| --- | --- |
| UACUCAAGUGACAGCUUCAGCAUUUCUUGGUAGCACCUACAGCAUUCUGAUUACAUGCAGGUUCCUGGAAGGAGUGUGUCAAUCAUUUAGCUGCAUGUCAUCGGCUCAGC | 1.24 |
| CUCUGGGAGGUCACUAAUCUACCCCUGAGGUACCCACUCUUUCUGUCGUAGCUUUCUUCUAGGGCCCCAACAAGCAAGCAUAAACCAGGCUUGCUGGCCAGCACUCCUUG | 0.347 |
| UGUUUGUUUCUGUUUUUCUGGAUUUAAAAAAAAAGAAAACCUUGCUUUUAGUGUUUGUACUGCUGCUGGUCAGAAUGUUGUUAACUGCUCAGUUCUAGGAAGCAGGAGAG | 0.69 |
| CCUCGUAGAGGAGGUAUACGUGGCUGCCUUAGUAUUCUGUUCCUCAUGAUUAUUUUAGAAACUGGAUUUUAAAAAGUCUUUUAGAGUUUCACAACAAGGAGAAGCCACAG | 0.405 |
| GCCAUAGUUUUGACUCAGCCCCAUGCAUCCUUUCCCUCUUUCCUGAAAACAACUAAUUUAAAUUUGCUUUGUUUUCUUUUUUAAGUUGAAUUGACGUUAAUGUGUUUUCA | 1.41 |
| AUACCUGUAACAAUCAGAAAUUCUUAAUCGCUUGUGGUAUGGUUUUAAUUCUAGAUGUUUUAUCUCUCUGGGAGUAUAGUUUAUAGAAACACAAAGUACUUGAUUUCCUG | 0.616 |
| GCAUCAUGCCACUUGGAACUUAUUGGAACUGGCCCGGGAGACUCUGCAGUCUGCGCCGUUUGAAAACCCUGAGAAAGAGAUGCCACCUCAACUUGAAUCAUGACAGCCCA | 0.723 |
| GUCAGCCCAUAAGCAAAGUCAAAUAACCCACGUGAGGACUGCUUUGUGUGUCUAACUCUCAGUUAUAAGCAUUCUGACCAGUGUUUAAACGUGUAAAUAAGAACACACAU | 0.478 |
| ACCAAACUCAGUCACUCCACCUCAGUCAUGACCUGAUAUAAAAGCCGUGCUAGUUUCCCGAGUUCAGACUCUCAGCUUUGGUUUGGUUUUGGUUUUGGUUUUUUGUUCUU | 0.471 |
| UCCCUUGCCCAGAGGACAGACCUCCGGGGCCCAUCUUGGCCCUGGGAAAGGGCUCUCCUCUCUGAUUGGUCCCUAGGCCACGGGCCGGCCCCCAGACACCAUUCACCGAC | 0.177 |
| GCUCUACUUUGAUAUUAUAACCUAUGUCACAUGUGUUUAAUAAAUACCAUAUAUUUUGUUCUACUAAUGUUGUCUCUCUGUUUCAUCCAUGACCAUGUAGAAGGGGCAGA | 0.662 |
| GGUUGUUUUGUACAUAUUGGAAUAUGUGUUAACUUAUGCCCCGCAUCCCAACUCACACGGAAGCACGGGUCUUGUCUCAGUCUCUUCGCUGCAUUUGGAAAGCAGUCUCC | 0.434 |

Excerpt of the above (set 2):
| Oligonucleotide | log fluorescence [z-score] |
| --- | --- |
| GACGGACTGGGTAACGGGACGTGCTAG | -0.579 |
| GACAAACTGGGGACTGGAGACGTGCTA | 0.0385 |
| AGGAGAGATTAAGTAACTTAGTGCTAG | -0.619 |
| TTAGGTTTTGGACTGGGTTAGTGCTAG | 0.239 |
| TCAATTTTCGTTTTTATACTGTGCTAG | 7.31 |
| GTCGAACTGGGGTATCGAGACGTGCTA | -0.062 |
| CCCTTACCGCATATCGGGGTGTGCTAG | 0.491 |
